Measured values of several laboratories.
Each line is one published result; not all experiments were run side by side.

O=C(Nc1ccccc1)C1CCN(C(=O)Oc2cccnc2)CC1  subjects with disturbance in attention (adverse event reporting; healthy women; oral, 20 mg, 7 days): 7.1%
COc1cc2c(Oc3ccc4[nH]c(C)cc4c3F)ccnc2cc1OCC1(N)CC1  grade 1 or 2 Rash (paediatric recurrent refractory sarcoma; 12 mg): 18.2%
NCCCC[C@@H]1NC(=O)[C@@H](Cc2c[nH]c3ccccc23)NC(=O)[C@H](c2ccccc2)NC(=O)[C@@H]2C[C@@H](OC(=O)NCCN)CN2C(=O)[C@H](Cc2ccccc2)NC(=O)[C@H](Cc2ccc(OCc3ccccc3)cc2)NC1=O  subjects with feeling hot (healthy human volunteers; 600 µg twice daily): 2%
O=C(c1cc2cccnc2n1-c1ccc(Cl)c(Cl)c1)N1CC(F)(F)C1  clearance (mouse; intravenous, 5 mg/kg): 20.9 mL/min/kg
Cc1cc(C)c(CNC(=O)c2cc(Cl)c3c(c2C)O[C@@](C)([C@H]2CC[C@H](N(C)C)CC2)O3)c(=O)[nH]1  incidence of pleural effusion (relapsed/refractory NHL patients; dose not given, trial, safety set, all TEAEs grade 5): 0%
CN1CC[C@@H](c2c(O)cc(O)c3c(=O)cc(-c4ccc(C(F)(F)F)cc4Cl)oc23)[C@@H]1CO  patients with adverse event (measured: urinary incontinence; AML; oral, 200 mg, grade 3 to 4, intermittent dosing): 10%
CCN(CC)CCCC[C@H](NC(=O)[C@H](CC(C)C)NC(=O)[C@H](C)NC(=O)[C@H](Cc1ccccc1)NC(=O)c1ccc(C(C)(C)C)cc1)C(=O)N[C@@H](CO)C(=O)OC  plasma concentration (male Swiss Albino mice, plasma; intraperitoneal, 10 mg/kg, 0.05 h): 199 ng/mL
CCc1ccc(CC/C=C/c2ccc3c(c2)C(=O)CC3)cc1  APTT (Sprague-Dawley rat, female; oral, 120 mg/kg/day, 14 days): 15.2 s
CO[C@H]1C[C@@H]2CC[C@@H](C)[C@@](O)(O2)C(=O)C(=O)N2CCCC[C@H]2C(=O)O[C@H]([C@H](C)C[C@@H]2CC[C@@H](OC(=O)NCCOCCOCCOCCOCCOCCOCCOCCOCCC(=O)N3CCc4cc(Cn5nc(-c6ccc7oc(N)nc7c6)c6c(N)ncnc65)ccc4C3)[C@H](OC)C2)C[C@@H](O)[C@H](C)/C=C(\C)[C@@H](O)[C@@H](OC)C(=O)[C@H](C)C[C@H](C)/C=C/C=C/C=C/1C  any TEAE incidence (phase 1 dose escalation; advanced solid tumour patients; intravenous, 10 mg weekly, grade ≥3): 75%
C[C@]1(CO)Cc2ncn(-c3ccc(C#N)c(Cl)c3)c2C(=O)O1  drug-related Headache incidence (healthy humans; concentration not given, multiple dose part total): 2.2%

A few entries again:
Cc1cc(C)c(CNC(=O)c2cc(Cl)c3c(c2C)O[C@@](C)([C@H]2CC[C@H](N(C)C)CC2)O3)c(=O)[nH]1  incidence of pleural effusion (relapsed/refractory NHL patients; dose not given, trial, safety set, all TEAEs grade 5): 0%
